Assay results gathered from unrelated publications.
Every numbered part comes from another study and shows a few of its results, in no order. Positions count from the first letter of the parent shown.
UniProt Q9H2K8, sequence (whole entry, looked up): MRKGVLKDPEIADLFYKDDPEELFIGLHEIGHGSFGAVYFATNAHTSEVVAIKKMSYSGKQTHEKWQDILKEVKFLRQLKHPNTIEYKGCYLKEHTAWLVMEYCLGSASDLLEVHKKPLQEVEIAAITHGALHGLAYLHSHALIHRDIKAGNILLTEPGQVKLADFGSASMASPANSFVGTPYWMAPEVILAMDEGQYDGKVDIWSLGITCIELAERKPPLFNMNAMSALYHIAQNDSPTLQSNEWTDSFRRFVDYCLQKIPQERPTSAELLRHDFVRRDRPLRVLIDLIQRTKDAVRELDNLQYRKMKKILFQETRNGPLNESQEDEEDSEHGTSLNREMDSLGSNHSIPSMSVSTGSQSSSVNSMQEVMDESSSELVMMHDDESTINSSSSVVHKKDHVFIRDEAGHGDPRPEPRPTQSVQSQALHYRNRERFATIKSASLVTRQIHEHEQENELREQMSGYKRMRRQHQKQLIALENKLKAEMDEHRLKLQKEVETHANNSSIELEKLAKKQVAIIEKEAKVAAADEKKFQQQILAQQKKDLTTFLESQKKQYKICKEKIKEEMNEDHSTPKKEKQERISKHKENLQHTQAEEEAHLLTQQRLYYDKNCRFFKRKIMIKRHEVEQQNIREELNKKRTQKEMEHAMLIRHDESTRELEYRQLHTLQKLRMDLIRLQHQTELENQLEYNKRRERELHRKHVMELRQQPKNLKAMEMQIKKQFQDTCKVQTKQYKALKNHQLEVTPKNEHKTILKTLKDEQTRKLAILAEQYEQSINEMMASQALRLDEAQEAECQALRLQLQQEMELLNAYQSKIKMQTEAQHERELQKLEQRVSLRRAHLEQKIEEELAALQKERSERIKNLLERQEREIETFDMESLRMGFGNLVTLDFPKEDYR

Block 1
Target: RNA binding protein fox-1 homolog 2, RRM domain, GST-SBP tag (RBFOX2, Homo sapiens, UniProt O43251-10, residues 100-194)
Method: RNA Bind-n-Seq
Molecule type: RNA
Sample: in vitro
Tested at: 365 nM
Notes: natural RNA segment, single round, ends assumed
Reference: no-protein control
Direction: higher = stronger binding
Target sequence (chain): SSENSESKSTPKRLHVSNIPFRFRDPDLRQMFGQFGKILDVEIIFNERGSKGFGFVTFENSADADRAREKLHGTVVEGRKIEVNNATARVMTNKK
For `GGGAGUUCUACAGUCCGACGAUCGUGCUGUACACUCAGCAUAUGUGCCUCUUGUAUGCAAGGACUACUGAUUGAAGUCUGUUUUGCUGUGUCUGGUUAUGUUGUCUGCACUUUUAUGAAAUCACUACAAUAGAUGGAAUUCUCGGGUGCCAA`, “RBNS enrichment (R)” read 1.7.
For `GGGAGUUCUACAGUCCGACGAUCUGUGCUUGGUGAAAUCAGCAAGAAACCAACCAUAUAAAACAGUGUGUGCCGGGCUCUGACUGAGAAACUGAACAAUGGCAGGCGCUUCAUCUGGGCAGCCAUUUUUCUUCUGGAAUUCUCGGGUGCCAA`, “RBNS enrichment (R)” read 0.474.
`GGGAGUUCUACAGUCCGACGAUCGCACGUCUUUAAUCCCAGCACUUGGGAGGCAGGCAGAGAUAGGCGGAUUUCUGAGUUUGAGGCCAGCCUGGUCUACAGAGUGAGUUCGAGGACAACCAGGGCUACACAGAUGGAAUUCUCGGGUGCCAA` — result for “RBNS enrichment (R)”: 0.281.
`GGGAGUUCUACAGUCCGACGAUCACUUGACAGACUUGUGUUUUCUGGUCUGAGCUGCCUCCACAGGUCCCUCCAGCAAGCCUCACUGCACCUCUCCCCUGCUGUUUGUGUUUGGAAUUUUGUCUUCUUUAGCUUGGAAUUCUCGGGUGCCAA`: “RBNS enrichment (R)” 3.07.
Under “RBNS enrichment (R)”, `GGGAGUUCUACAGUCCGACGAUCAGAUAUAAGUACGGUCAAAAAACAAAACUGUGGGACUUACAUUUAUUUUCUAUAGUAAUCUGUUGUACAUUUUAAGAAGUAAAACUAGGAAUUUAGGAGUGAUGUGUGACUGGAAUUCUCGGGUGCCAA` is recorded as 1.08.
`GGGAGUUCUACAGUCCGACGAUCAUGUGACCACUCUGUCUUGUGUUUCCACAGCCUGCAAGUCAGUCCAGGAUGCUAACAUCUAAAAAUAGACUUAAAUCUCAUUGCUUACAAGCCUAAGAAUCUUUAGAGAAUGGAAUUCUCGGGUGCCAA` — result for “RBNS enrichment (R)”: 0.593.
For `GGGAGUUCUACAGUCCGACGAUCCACUUUGACCCUCUGGCUAAGCCCUGGGAGUCCCUGACAGGUCCAGAAACUUCUCUGACACCCAUUCACCAGGGUGCUGAGAUAGGAGAAAGUGCUCAUUUAUAAUGUGUUGGAAUUCUCGGGUGCCAA`, “RBNS enrichment (R)” read 0.247.
Under “RBNS enrichment (R)”, `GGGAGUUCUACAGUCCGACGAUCUCAUGAUAAUUUGUCAUAACUCAGUAGCAUGACCUGCCCCUAGAAGGUAGUUAAAAUUUGUAAAUGCUAAGGCGUUGCCAGGUCCUAAUGAGUCAGACCUGUACUACUGAUGGAAUUCUCGGGUGCCAA` is recorded as 0.486.

Block 2
Target: BATF, bZIP domain (human)
Method: DHFR protein complementation
Sample: yeast
Notes: single substitutions, most at no-binding floor
Reference: wild-type JUN-FOS pair
Direction: higher = stronger binding
Starting sequence: JUN, bZIP domain (human); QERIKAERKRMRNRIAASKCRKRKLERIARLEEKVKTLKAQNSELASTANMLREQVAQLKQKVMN; partner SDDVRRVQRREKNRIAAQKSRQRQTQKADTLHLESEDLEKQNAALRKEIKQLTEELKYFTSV
`S43I` has a binding fitness of 0.0242 natural log.
The binding fitness of `S43T` is reported as 0.0789 natural log.
`Q55P` has a binding fitness of -1.06 natural log.
For `A40V`, the binding fitness was 0.00528 natural log.
For `I28W`, the binding fitness was -0.053 natural log.
For `E33I`, the binding fitness was -0.212 natural log.
`K36C` has a binding fitness of 0.0907 natural log.
`L52P` gave a binding fitness of -1.17 natural log.

Single results of other studies
`PhoQ, residues 284 288 289 292 302 303 SMMNNA` gave a fold induction of 1.16 (PhoP, residues 12 14 15 18 19 NQAHL (Escherichia coli, UniProt P23836); Sort-seq, item: YFP reporter; E. coli; PhoQ-PhoP variant library, together with: 10 µM Mg2+; reference: high Mg2+ state, higher = stronger signaling).
With `O=C(c1ccccc1)c1ccc(N2CCOCC2)cc1O` the remaining activity was 99% (TAOK3 (Homo sapiens, UniProt Q9H2K8); enzyme activity, inhibitor; 0.5 µM; reference: control).

Some of these lines once more (single results of other studies):
`PhoQ, residues 284 288 289 292 302 303 SMMNNA` gave a fold induction of 1.16 (PhoP, residues 12 14 15 18 19 NQAHL (Escherichia coli, UniProt P23836); Sort-seq, item: YFP reporter; E. coli; PhoQ-PhoP variant library, together with: 10 µM Mg2+; reference: high Mg2+ state, higher = stronger signaling).
With `O=C(c1ccccc1)c1ccc(N2CCOCC2)cc1O` the remaining activity was 99% (TAOK3 (Homo sapiens, UniProt Q9H2K8); enzyme activity, inhibitor; 0.5 µM; reference: control).
